Experimental data gathered from unrelated publications.
Lines come from different studies, so protocols differ.
Organism: Staphylococcus aureus

SMILES	test	test system	setting	MIC
CCC(CC)c1cc(CCN2CCCNCC2)nc(-c2ccccn2)n1	microbial growth, broth dilution	ATCC29213	–	> 16 µg/mL
CCCCCCCCCC[N+](C)(C)CCCCCCCCCCOc1cc(OCCCCCCCCCC[N+](C)(C)CCCCCCCCCC)cc(OCCCCCCCCCC[N+](C)(C)CCCCCCCCCC)c1.[Br-].[Br-].[Br-]	–	HA-MRSA ATCC 33591	–	32 µM
CCCCCCCC(=O)N[C@@H](CC(N)=O)C(=O)N[C@H]1CNC(=O)[C@H](c2ccc(O)c(Cl)c2)NC(=O)[C@@H](C)NC(=O)[C@H](CC(C)C)NC(=O)CNC(=O)[C@H](c2ccc(O)cc2)NC(=O)[C@@H]([C@H](C)O)NC(=O)[C@H](c2ccc(O)cc2)NC(=O)[C@@H](CCCN)NC(=O)[C@H](Cc2ccccc2)NC(=O)[C@H]([C@@H](C)O)NC(=O)[C@@H](c2ccc(O)cc2)NC(=O)[C@H](c2ccc(O)cc2)NC(=O)[C@@H]([C@H](C)O)NC(=O)[C@@H](CCCN)NC(=O)[C@@H](c2ccc(O)cc2)NC1=O	–	MSSA ATCC 29213	–	1 µM
COc1ccc(/N=N/C(=S)N2CCOCC2)cc1	microbial growth, broth dilution	ATCCBAA44 MRSA	24 h	> 50 µM
CC[C@H]1OC(=O)[C@H](C)[C@@H](OC(=O)Cc2cccc3ccccc23)[C@H](C)[C@@H](O[C@@H]2O[C@H](C)C[C@H](N(C)C)[C@H]2O)[C@](C)(OC)C[C@@H](C)C(=O)[C@H](C)[C@@H](O)[C@]1(C)O	microbial growth	BAA976	–	16 µg/mL
CC(C)C[C@@H]1NC(=O)[C@@H](CC(C)C)NC(=O)[C@H](CCN)NC(=O)[C@@H](NC(=O)[C@H](CCN)NC(=O)[C@@H](N)[C@@H](C)O)CCNC(=O)[C@H]([C@@H](C)O)NC(=O)[C@H](CCN)NC(=O)[C@H](CCN)NC1=O	broth microdilution	MSSA ATCC 29213, cation-adjusted Mueller-Hinton broth	20 to 24 h, 37 °C, 0.002% polysorbate 80	> 128 µg/mL
CC[C@H]1OC(=O)[C@H](C)[C@@H](OC(=O)Cc2ccc(OC)cc2)[C@H](C)[C@@H](O[C@@H]2O[C@H](C)C[C@H](N(C)C)[C@H]2O)[C@](C)(OC)C[C@@H](C)C(=O)[C@H](C)[C@@H](O)[C@]1(C)O	microbial growth	BAA976	–	8 µg/mL
CCCCCC[N+](C)(C)CCCCCCCCCCOc1cc(OCCCCCCCCCC[N+](C)(C)CCCCCC)cc(OCCCCCCCCCC[N+](C)(C)CCCCCC)c1.[Br-].[Br-].[Br-]	–	CA-MRSA USA300-0114	–	1 µM
C=C1CN(C(=N)N)CC2Nc3c(F)cc(Br)cc3C12CCNS(=O)(=O)c1ccc(Cl)cc1.O=C(O)C(F)(F)F (stereo not shown)	–	MRSA ATCC BAA-44	compound alone	8 µg/mL
CC[C@H](C)[C@H](NC(=O)[C@@H](CCCNC(=N)N)NC(=O)[C@H](CCCNC(=N)N)NC(=O)[C@@H]1CCCN1C(=O)[C@@H]1CCCN1C(=O)[C@H](CCCNC(=N)N)NC(=O)[C@@H]1CCCN1C(=O)[C@H](CCCNC(=N)N)NC(=O)[C@@H]1CCCN1C(=O)[C@H](CCCNC(=N)N)NC(=O)[C@H](Cc1ccc(O)cc1)NC(=O)[C@@H]1CCCN1C(=O)[C@@H]1CCCN1C(=O)[C@H](CCCCN)NC(=O)[C@H](CC(=O)O)NC(=O)[C@@H](N)C(C)C)C(=O)N[C@@H](Cc1ccc(O)cc1)C(=O)N[C@@H](CC(N)=O)C(=O)N[C@H](CCCNC(=N)N)C(N)=O	broth microdilution	DSM 6247	18 h, 37 °C, 25% MHB2	64 µg/mL
CCCCCCCCCC[N+](C)(C)CCCCCCOc1cc(OCCCCCC[N+](C)(C)CCCCCCCCCC)cc(OCCCCCC[N+](C)(C)CCCCCCCCCC)c1.[Br-].[Br-].[Br-]	–	HA-MRSA ATCC 33591	–	2 µM
CC[C@H]1OC(=O)[C@H](C)[C@@H](OC(=O)Cc2ccccc2[N+](=O)[O-])[C@H](C)[C@@H](O[C@@H]2O[C@H](C)C[C@H](N(C)C)[C@H]2O)[C@](C)(OC)C[C@@H](C)C(=O)[C@H](C)[C@@H](O)[C@]1(C)O	–	ATCC 43300 MRSA	–	> 64 µg/mL
CCCCCCCCCCCC[N+](C)(C)CCCCCCCCCCOc1cc(OCCCCCCCCCC[N+](C)(C)CCCCCCCCCCCC)cc(OCCCCCCCCCC[N+](C)(C)CCCCCCCCCCCC)c1.[Br-].[Br-].[Br-]	–	HA-MRSA ATCC 33591	–	> 250 µM
CCn1cc(/C=C/c2ccc3ccccc3[n+]2CC)c2ccccc21	–	1466	–	4 µg/mL
C/C(=C\c1ccc(O)cc1)C(=O)Nc1ccc(C(=O)N[C@@H](Cc2c[nH]nn2)C(=O)Nc2ccc(C(=O)Nc3ccc(C(=O)Nc4ccc(C(=O)O)cc4)cc3)cc2)cc1	broth microdilution	ciprofloxacin-sensitive	–	32 µg/mL
CCCCCCCC[C@@H]1NC(=O)[C@@H](CCCN)NC(=O)[C@@H](NC(=O)[C@@H](NC(=O)[C@@H](CCC(=O)O)NC(=O)[C@H](CC(C)C)NC(=O)[C@@H]2CSC([C@@H](N)[C@@H](C)CC)=N2)[C@@H](C)CC)CCCCNC(=O)[C@H](CC(N)=O)NC(=O)[C@@H](CC(=O)O)NC(=O)[C@H](Cc2c[nH]cn2)NC(=O)[C@@H](Cc2ccccc2)NC1=O	–	ATCC 29213	together with: EDTA 0.3 mM	16 µg/mL
CCCCCC(=O)Oc1c(C)c(OC)c2c(c1C)OC(=O)[C@@H](CCCC)[C@]2(O)/C=C/c1ccccc1 (relative stereo)	microbial growth, broth dilution	ATCC25923	–	5000 µg/mL

SMILES	test	test system	setting	MIC
C/C(=C\c1ccc(O)cc1)C(=O)Nc1ccc(C(=O)N[C@@H](Cc2c[nH]nn2)C(=O)Nc2ccc(C(=O)Nc3ccc(C(=O)Nc4ccc(C(=O)O)c(O)c4)c(O)c3)cc2)cc1	broth microdilution	ciprofloxacin-sensitive	–	1 µg/mL
CC[C@H]1OC(=O)[C@H](C)[C@@H](OC(=O)Cc2ccc([N+](=O)[O-])cc2)[C@H](C)[C@@H](O[C@@H]2O[C@H](C)C[C@H](N(C)C)[C@H]2O)[C@](C)(OC)C[C@@H](C)C(=O)[C@H](C)[C@@H](O)[C@]1(C)O	–	ATCC 43300 MRSA	–	> 128 µg/mL
COc1nc(C(=O)Nc2ccc(C(=O)O)c(O)c2OC)ccc1NC(=O)c1ccc(NC(=O)[C@H](Cc2c[nH]nn2)NC(=O)c2ccc(NC(=O)/C(C)=C/c3ccc(O)cc3)cc2)cc1	broth microdilution	ciprofloxacin-sensitive	–	1 µg/mL
COc1ccc(NC(=O)COc2cccc(OCC(C)C)c2)cc1	microbial growth, broth dilution	MB2865	–	> 128 µg/mL
O=C(Nc1ccc(Oc2ccccc2)cc1)Nc1ccc(Cl)c(C(F)(F)F)c1	microbial growth	NCTC8325	–	0.5 µM
CN[C@H](CC(C)C)C(=O)N[C@H]1C(=O)N[C@@H](CC(N)=O)C(=O)N[C@H]2C(=O)N[C@H]3C(=O)N[C@H](C(=O)N[C@H](C(=O)O)c4cc(O)cc(O)c4-c4cc3ccc4O)[C@H](O)c3ccc(c(Cl)c3)Oc3cc2cc(c3O[C@@H]2O[C@H](CO)[C@@H](O)[C@H](O)[C@H]2O[C@H]2C[C@](C)(N)[C@H](O)[C@H](C)O2)Oc2ccc(cc2Cl)[C@H]1O	microbial growth, broth dilution	43300	–	< 1 µM
CC[C@H]1OC(=O)[C@H](C)C(=O)[C@H](C)[C@@H](O[C@@H]2O[C@H](C)C[C@H](N(C)C)[C@H]2O)[C@](C)(OC)C[C@@H](C)C(=O)[C@H](C)[C@H]2N(CCCCn3cnc(-c4cccnc4)c3)C(=O)O[C@]12C	microbial growth	BAA976	–	32 µg/mL
COc1cc(C(=O)O)ccc1NC(=O)c1ccc(NC(=O)c2ccc(NC(=O)[C@H](Cc3c[nH]nn3)NC(=O)c3ccc(NC(=O)/C(C)=C/c4ccc(O)cc4)cc3)cc2)cc1	broth microdilution	ciprofloxacin-resistant	–	32 µg/mL
CN[C@H](CC(C)C)C(=O)N[C@H]1C(=O)N[C@@H](CC(N)=O)C(=O)N[C@H]2C(=O)N[C@H]3C(=O)N[C@H](C(=O)N[C@H](C(=O)O)c4cc(O)cc(O)c4-c4cc3ccc4O)[C@H](O)c3ccc(c(Cl)c3)Oc3cc2cc(c3O[C@@H]2O[C@H](CO)[C@@H](O)[C@H](O)[C@H]2O[C@H]2C[C@](C)(NCc3ccc(OCc4cn(CCCCC(=O)N[C@H](C(=O)N[C@@H](CCN)C(=O)N[C@H]5CCNC(=O)[C@H]([C@@H](C)O)NC(=O)[C@H](CCN)NC(=O)[C@H](CCN)NC(=O)[C@H](CC(C)C)NC(=O)[C@@H](CC(C)C)NC(=O)[C@H](CCN)NC5=O)[C@@H](C)O)nn4)c(OC)c3)[C@H](O)[C@H](C)O2)Oc2ccc(cc2Cl)[C@H]1O	broth microdilution	MRSA USA300, cation-adjusted Mueller-Hinton broth	20 to 24 h, 37 °C, 0.002% polysorbate 80	0.25 µg/mL
CC[C@H]1OC(=O)[C@H](C)[C@@H](OC(=O)CC2CCCCC2)[C@H](C)[C@@H](O[C@@H]2O[C@H](C)C[C@H](N(C)C)[C@H]2O)[C@](C)(OC)C[C@@H](C)C(=O)[C@H](C)[C@@H](O)[C@]1(C)O	–	BAA-977	–	2 µg/mL
CC1C=CC=CC(C)C2C=CC3CC(C)(O)C(Cl)C(C)C3C2C(=O)C(Cl)(Cl)C(=O)C(C)C(=O)O1 (stereo not shown)	–	MRSA clinical isolate	OXA FA resistant	0.1 µg/mL
CCCCCC[N+](C)(C)CCCCCCCCOc1cc(OCCCCCCCC[N+](C)(C)CCCCCC)cc(OCCCCCCCC[N+](C)(C)CCCCCC)c1.[Br-].[Br-].[Br-]	–	SH1000 MSSA	–	1 µM
C=C/C=C(\C)CC[C@@H](O)C[C@H](O)CC(=O)OC	microbial growth, broth dilution	ATCC6538P	–	256 µg/mL
CCCCCCn1cc[n+](CCCCCCCCOc2cc(OCCCCCCCC[n+]3ccn(CCCCCC)c3)cc(OCCCCCCCC[n+]3ccn(CCCCCC)c3)c2)c1.[Br-].[Br-].[Br-]	–	SH1000 MSSA	–	1 µM
CC[C@H]1OC(=O)[C@H](C)[C@@H](OC(=O)Cc2ccc3c(c2)OCO3)[C@H](C)[C@@H](O[C@@H]2O[C@H](C)C[C@H](N(C)C)[C@H]2O)[C@](C)(OC)C[C@@H](C)C(=O)[C@H](C)[C@@H](O)[C@]1(C)O	–	DSM 20231 MSSA	–	0.5 µg/mL
CCCCCCCCCC[N+](C)(C)CCCCOc1cc(OCCCC[N+](C)(C)CCCCCCCCCC)cc(OCCCC[N+](C)(C)CCCCCCCCCC)c1.[Br-].[Br-].[Br-]	–	HA-MRSA ATCC 33591	–	1 µM
O=[N+]([O-])c1cc(Cl)c2cccnc2c1O	broth microdilution	ATCC 43300 MRSA	–	2 µg/mL

Excerpt of the above:
SMILES	test	test system	setting	MIC
COc1ccc(NC(=O)COc2cccc(OCC(C)C)c2)cc1	microbial growth, broth dilution	MB2865	–	> 128 µg/mL
O=C(Nc1ccc(Oc2ccccc2)cc1)Nc1ccc(Cl)c(C(F)(F)F)c1	microbial growth	NCTC8325	–	0.5 µM
CN[C@H](CC(C)C)C(=O)N[C@H]1C(=O)N[C@@H](CC(N)=O)C(=O)N[C@H]2C(=O)N[C@H]3C(=O)N[C@H](C(=O)N[C@H](C(=O)O)c4cc(O)cc(O)c4-c4cc3ccc4O)[C@H](O)c3ccc(c(Cl)c3)Oc3cc2cc(c3O[C@@H]2O[C@H](CO)[C@@H](O)[C@H](O)[C@H]2O[C@H]2C[C@](C)(N)[C@H](O)[C@H](C)O2)Oc2ccc(cc2Cl)[C@H]1O	microbial growth, broth dilution	43300	–	< 1 µM
CC[C@H]1OC(=O)[C@H](C)C(=O)[C@H](C)[C@@H](O[C@@H]2O[C@H](C)C[C@H](N(C)C)[C@H]2O)[C@](C)(OC)C[C@@H](C)C(=O)[C@H](C)[C@H]2N(CCCCn3cnc(-c4cccnc4)c3)C(=O)O[C@]12C	microbial growth	BAA976	–	32 µg/mL
COc1cc(C(=O)O)ccc1NC(=O)c1ccc(NC(=O)c2ccc(NC(=O)[C@H](Cc3c[nH]nn3)NC(=O)c3ccc(NC(=O)/C(C)=C/c4ccc(O)cc4)cc3)cc2)cc1	broth microdilution	ciprofloxacin-resistant	–	32 µg/mL
